Measured values from different studies.
Lines come from different studies, so protocols differ. ± gives the spread as reported.
Organism: Influenza A virus

For CCN(CC)C12C3CCC4C3C3C(CCC31)C42, the EC50 was 18 ± 11 µM (viral replication; MDCK, A/FM/1/47 (H1N1)).
For C=CCCCOP(=O)(O)Oc1c2c(c(OP(=O)(O)OCCCC=C)c3c1C1CC3c3cc4c(cc31)C1CC4c3ccccc31)C1CC2c2cc3c(cc21)C1CC3c2ccccc21, the IC50 was 34.5 µM (viral replication; Caco-2).
With CC(C)C1=CC2=CC[C@@H]3[C@](C)(CCC[C@@]3(C)C(=O)OCC#CCN3CCCC3)[C@H]2CC1 the selectivity index was 2.99 (MDCK, A/Puerto Rico/8/34 (H1N1); baseline: CC50 over IC50).
The IC50 of CC12CCC(CC1=NCCO)C2(C)C (centres unmarked) is reported as 10.3 µM (viral replication; MDCK, H3N2).
With CC(=N)NCC12C3CCC4C3C3C(CCC31)C42 the EC50 was greater than 100 µM (viral replication; MDCK, H1N1 A/PR/8/34).
CC1=CCC[C@H](C)[C@@]12CC[C@@H](C(C)(C)O)C2 gave a selectivity index of 3.3 (MDCK, A/PR/8/34 (H1N1); baseline: CC50 over IC50).
For CC(C)C1=CC2=CC[C@@H]3[C@](C)(CCC[C@@]3(C)C(=O)OCC#CCN3CCOCC3)[C@H]2CC1, the selectivity index was 0.24 (MDCK, A/Puerto Rico/8/34 (H1N1); baseline: CC50 over IC50).
For CC(=N)N1CC23C4C5CC5C5C4C4C2C2CC2C4C53C1 (centres unmarked), the EC50 was greater than 100 µM (viral replication; MDCK, H3N2 A/HK/7/87).
For CC(=O)OC[C@H]1O[C@@H](Oc2cc(C)c3c(c2)C(=O)c2cccc(O)c2C3=O)[C@H](OC(C)=O)[C@@H](OC(C)=O)[C@@H]1OC(C)=O, the inhibition was 60% (viral production, time-of-addition; 50 µM).
The selectivity index of CC(C)c1ccc2c(c1)CC[C@H]1[C@](C)(C(=O)OCC#CCN3CCCC3)CCC[C@]21C is reported as 0.66 (MDCK, A/Puerto Rico/8/34 (H1N1); baseline: CC50 over IC50).
For C=CC(=O)Nc1cccc2c1cc(C)n2-c1nc2c(c(NCc3ccccc3)n1)CCCC2, the viability was 0% (MDCK, A/WS/33 (H1N1); 0.25 µM, 24 h, infected cells).
With Cc1ccccc1-c1nnn(C23CC4CC(CC(C4)C2)C3)n1 the selectivity index was 1 (A/Puerto Rico/8/34 (H1N1); baseline: CC50 over IC50).
CC(C)=CCC[C@H](C)c1ccc(C)cc1 gave a selectivity index of 6.2 (MDCK, A/Shenzhen/203/2001 (H3N2); baseline: CC50 over IC50).
The EC50 of N=C(N)N1CC23C4CCC5C4C4C2CCC4C53C1 is reported as 1.3 µM (viral replication; MDCK, A/PR/8/34 (H1N1)).
The selectivity index of CC(C)C1=C[C@@]23CC[C@@H]4[C@](C)(CCC[C@@]4(C)C(=O)OCC#CCN4CCOCC4)[C@H]2C[C@@H]1[C@H]1C(=O)CCC(=O)[C@H]13 is reported as 1.65 (MDCK, A/Puerto Rico/8/34 (H1N1); baseline: CC50 over IC50).
CCC1(CC)C2CC3CC(C2)CC1(NC)C3 has an EC50 of greater than 100 µM (viral replication; A/Ishikawa/7/82 (H3N2)).
CCN(CC)CC#CCOC(=O)[C@]1(C)CCC[C@]2(C)[C@H]3C[C@H]4C(C(C)C)=C[C@]3(CC[C@H]21)[C@@H]1C(=O)CCC(=O)[C@@H]14 has a selectivity index of 5.45 (MDCK, A/Puerto Rico/8/34 (H1N1); baseline: CC50 over IC50).

Some of these lines once more:
CC1=CCC[C@H](C)[C@@]12CC[C@@H](C(C)(C)O)C2 gave a selectivity index of 3.3 (MDCK, A/PR/8/34 (H1N1); baseline: CC50 over IC50).
